Assay results from different studies.
Each line is one published result; not all experiments were run side by side.
Cell line: MCF-10A

Structure (SMILES) = CC[C@H](C)[C@@H]1NC(=O)[C@H](CCCNC(=N)N)NC(=O)C[C@@H](c2cccc3ccccc23)NC(=O)[C@@H]2CSSC[C@H](NC(=O)C[C@@H](c3cccc4ccccc34)NC(=O)[C@H](CCCNC(=N)N)NC(=O)[C@@H]3CCCN3C(=O)[C@@H]3CCCN3C1=O)C(=O)N[C@@H](Cc1ccccc1)C(=O)N1CCC[C@H]1C(=O)N[C@@H](CC(=O)O)C(=O)N[C@@H](CC(=O)O)C(=O)N[C@@H](Cc1ccccc1)C(=O)N2; read-out = cell growth or viability; technique = ATP luminescence; endpoint = IC50; result = > 40 µM
Structure (SMILES) = CC(=O)N1CCCC[C@H]1C(=O)NC(C)(C)C(=O)N1CCCC[C@H]1C(=O)NC(C)(C)C(=O)NC(C)(C)C(=O)N[C@@H](CC(C)C)C(=O)NC[C@H](C)C(=O)NCC(=O)NC(C)(C)C(=O)NC(C)(C)C(=O)N1CCCC[C@H]1C(=O)NC(C)(C)C(=O)NCC(=O)N[C@@H](CC(C)C)C(=O)NC(C)(C)C(=O)N[C@@H](CC(C)C)C[N+]1=C2CCCN2CCC1; read-out = cell growth or viability; technique = SRB; time = 48 h; endpoint = GI50; result = 0.096 µM
Structure (SMILES) = C=CC[P](c1ccccc1)(c1ccccc1)[Pt]([S]c1ncccn1)([S]c1ncccn1)[P](CC=C)(c1ccccc1)c1ccccc1; read-out = cell growth or viability; technique = MTT; endpoint = IC50; result = 44.7 µM
Structure (SMILES) = [Cl][Au-][P+](c1ccccc1)(c1ccccc1)c1cc[cH-]c1.[Cl][Au-][P+](c1ccccc1)(c1ccccc1)c1cc[cH-]c1.[Cl][Ti+2][Cl]; read-out = cell growth or viability; technique = XTT; endpoint = IC50; result = 9.64 µM
Structure (SMILES) = C=CC[P](c1ccccc1)(c1ccccc1)[Pt]([S]c1nc2ccccc2s1)([S]c1nc2ccccc2s1)[P](CC=C)(c1ccccc1)c1ccccc1; read-out = cell growth or viability; technique = MTT; endpoint = IC50; result = 88.4 µM
Structure (SMILES) = C[C@@H](O)[C@H](NC(=O)[C@H](CCCNC(=N)N)NC(=O)[C@H](CCCNC(=N)N)NC(=O)[C@H](CCCNC(=N)N)NC(=O)[C@@H]1CCCN1C(=O)[C@@H](N)CO)C(=O)N1CCC[C@H]1C(=O)N[C@@H](CO)C(=O)N1CCC[C@H]1C(=O)N[C@@H](CCCNC(=N)N)C(=O)N[C@@H](CCCNC(=N)N)C(=O)N[C@@H](CCCNC(=N)N)C(=O)N[C@@H](CCCNC(=N)N)C(=O)N[C@@H](CO)C(=O)N[C@@H](CCC(N)=O)C(=O)N[C@@H](CO)C(=O)N1CCC[C@H]1C(=O)N[C@@H](CCCNC(=N)N)C(=O)N[C@@H](CCCNC(=N)N)C(=O)N[C@@H](CCCNC(=N)N)C(N)=O; read-out = cell viability; technique = CellTiter-Blue; time = 24 h; setting = serum-free medium; endpoint = IC50; result = > 100 µM
Structure (SMILES) = CC[C@@H](C(=O)[C@@H](C)[C@@H](O)[C@H](C)[C@@H]1O[C@@H]([C@@H](CC)C(=O)O)CC[C@@H]1C)[C@H]1O[C@]2(C=C[C@H](N)[C@]3(CC[C@@](C)([C@H]4CC[C@](O)(CC)[C@H](C)O4)O3)O2)[C@H](C)C[C@@H]1C; read-out = cell growth or viability; technique = resazurin; time = 72 h; endpoint = IC50; result = > 12.5 µM
Structure (SMILES) = N=C(N)NCCC[C@H](NC(=O)[C@H](CCCNC(=N)N)NC(=O)[C@@H]1CCCN1C(=O)[C@H](CCCNC(=N)N)NC(=O)[C@H](CCCNC(=N)N)NC(=O)[C@H](CCCNC(=N)N)NC(=O)[C@H](Cc1c[nH]c2ccccc12)NC(=O)[C@H](CCCNC(=N)N)NC(=O)[C@H](CCCNC(=N)N)NC(=O)[C@H](CCCNC(=N)N)NC(=O)[C@H](CCCNC(=N)N)NC(=O)[C@H](CCCNC(=N)N)NC(=O)[C@H](Cc1c[nH]c2ccccc12)NC(=O)[C@H](CCCNC(=N)N)NC(=O)[C@H](CCCNC(=N)N)NC(=O)[C@H](Cc1ccc(O)cc1)NC(=O)[C@H](CCCNC(=N)N)NC(=O)[C@H](CCCNC(=N)N)NC(=O)[C@H](CCCNC(=N)N)NC(=O)[C@@H](N)Cc1c[nH]c2ccccc12)C(N)=O; read-out = cell growth or viability; technique = MTT; time = 24 h; setting = serum-free; endpoint = IC50; result = 18.2 µM
Structure (SMILES) = CC(=O)N1CCCC[C@H]1C(=O)NC(C)(C)C(=O)N1CCCC[C@H]1C(=O)NC(C)(C)C(=O)NC(C)(C)C(=O)N[C@@H](CC(C)C)C(=O)N[C@@H](C)CC(=O)NCC(=O)NC(C)(C)C(=O)NC(C)(C)C(=O)N1CCCC[C@H]1C(=O)NC(C)(C)C(=O)NCC(=O)N[C@@H](CC(C)C)C(=O)NC(C)(C)C(=O)N[C@@H](CC(C)C)C[N+]1=C2CCCN2CCC1; read-out = cell growth or viability; technique = SRB; time = 48 h; endpoint = GI50; result = 0.057 µM
Structure (SMILES) = C=CC[P](c1ccccc1)(c1ccccc1)[Pt]([S]c1ccc(C(F)(F)F)cn1)([S]c1ccc(C(F)(F)F)cn1)[P](CC=C)(c1ccccc1)c1ccccc1; read-out = cell growth or viability; technique = MTT; endpoint = IC50; result = 53.3 µM
Structure (SMILES) = CC[C@H](C)[C@H](NC(=O)[C@H](CCCNC(=N)N)NC(=O)[C@H](CCCNC(=N)N)NC(=O)[C@H](CCCNC(=N)N)NC(=O)[C@@H](NC(=O)[C@@H](NC(=O)[C@H](C)NC(=O)[C@H](CCCNC(=N)N)NC(=O)[C@H](CCCNC(=N)N)NC(=O)[C@H](CCCNC(=N)N)NC(=O)[C@@H]1CCCN1C(=O)[C@@H](N)CCCNC(=N)N)[C@@H](C)O)[C@@H](C)O)C(=O)N[C@H](C(=O)N[C@H](C(=O)NCC(=O)N[C@H](C(=O)N[C@@H](CCCNC(=N)N)C(=O)N[C@@H](CCCNC(=N)N)C(=O)N[C@@H](CCCNC(=N)N)C(=O)N[C@@H](CCCNC(=N)N)C(N)=O)[C@@H](C)O)[C@@H](C)O)[C@@H](C)O; read-out = cell viability; technique = CellTiter-Blue; time = 24 h; setting = serum-free medium; endpoint = IC50; result = > 100 µM
Structure (SMILES) = C=CC12COC(=O)C(=C)C1C(O)C1C(=C)C(=O)OC1C2 (stereo not shown); read-out = cell growth or viability; technique = MTT; time = 72 h; endpoint = IC50; result = 1.6 µM
Structure (SMILES) = CC(=O)N1CCCC[C@H]1C(=O)NC(C)(C)C(=O)N1CCCC[C@H]1C(=O)NC(C)(C)C(=O)NC(C)(C)C(=O)N[C@@H](CC(C)C)C(=O)NCCC(=O)N[C@H](C)C(=O)NC(C)(C)C(=O)NC(C)(C)C(=O)N1CCCC[C@H]1C(=O)NC(C)(C)C(=O)NCC(=O)N[C@@H](CC(C)C)C(=O)NC(C)(C)C(=O)N[C@@H](CC(C)C)C[N+]1=C2CCCN2CCC1; read-out = cell growth or viability; technique = SRB; time = 48 h; endpoint = GI50; result = 0.583 µM

Excerpt of the above:
Structure (SMILES) = C=CC[P](c1ccccc1)(c1ccccc1)[Pt]([S]c1ccc(C(F)(F)F)cn1)([S]c1ccc(C(F)(F)F)cn1)[P](CC=C)(c1ccccc1)c1ccccc1; read-out = cell growth or viability; technique = MTT; endpoint = IC50; result = 53.3 µM
Structure (SMILES) = CC(=O)N1CCCC[C@H]1C(=O)NC(C)(C)C(=O)N1CCCC[C@H]1C(=O)NC(C)(C)C(=O)NC(C)(C)C(=O)N[C@@H](CC(C)C)C(=O)N[C@@H](C)CC(=O)NCC(=O)NC(C)(C)C(=O)NC(C)(C)C(=O)N1CCCC[C@H]1C(=O)NC(C)(C)C(=O)NCC(=O)N[C@@H](CC(C)C)C(=O)NC(C)(C)C(=O)N[C@@H](CC(C)C)C[N+]1=C2CCCN2CCC1; read-out = cell growth or viability; technique = SRB; time = 48 h; endpoint = GI50; result = 0.057 µM
